Measurements collected from several papers.
± marks the error that the study gave.

| Structure (SMILES) | species | medium | route | dose | notes | Cmax |
| --- | --- | --- | --- | --- | --- | --- |
| O=C1c2c(O)c(=O)ccn2N([C@@H]2c3ccccc3SCc3c2ccc(F)c3F)[C@@H]2COCCN12 | BALB/c mouse |  | subcutaneous | 0.125 mg/kg q12h |  | 9.27 ng/mL |
| OB(O)CSc1nc2ccccc2n1Cc1ccc(C(F)(F)F)cc1C(F)(F)F | mouse | plasma | subcutaneous | 25 mg/kg |  | 8500 ng/mL |
| CN(C)C1(CNC(=O)c2ccc3c(c2)CCN3C(=O)c2ccccc2)CCOCC1 | ICR mouse, male | plasma | intraperitoneal | 30 mg/kg |  | 152 ± 31 ng/mL |
| NC(=O)c1cccc(-c2cc(OC(=O)NC3CCCCC3)ccc2O)c1 | mouse | plasma | intravenous | 10 mg/kg |  | 12800 ng/mL |
| Cc1ccc(F)c2cc(C(=O)N[C@@H]3CCC[C@H](N4CC[C@H](N(C)S(C)(=O)=O)C4)C3)[nH]c12 | CD1 mouse |  | oral | 30 mg/kg |  | 667 ng/mL |
| Nc1ccc2cc3ccc(N)cc3nc2c1 | male CD-1 mouse | lung | intravenous | 15 mg/kg as hydrochloride |  | 43800 ng/mL |
| N#C[C@@]1(n2ccc(N)nc2=O)O[C@H](CO)[C@@H](O)[C@H]1O | CD-1 mouse | plasma | oral | 30 mg/kg | mean | 17500 ng/mL |
| Cc1ccccc1C(=O)NN=Cc1ccc(O)c(Br)c1 | C3H/HeN mouse IN model | plasma | intraperitoneal | 0.8 mg/kg |  | 213 ng/mL |
| CC(C)(C)N1CCC(NC(=O)c2ccc(C(F)(F)F)cc2Cl)CC1 | BALB/c mouse | plasma | intraperitoneal | 10 mg/kg |  | 3.12 µM |
| CN[C@H]1CC[C@@H](c2ccc(Cl)c(Cl)c2)c2ccccc21 | CD-1 mouse, male | lung | intraperitoneal | 30 mg/kg |  | 43500 ng/g |

Repeated from above:
| Structure (SMILES) | species | medium | route | dose | notes | Cmax |
| --- | --- | --- | --- | --- | --- | --- |
| Cc1ccccc1C(=O)NN=Cc1ccc(O)c(Br)c1 | C3H/HeN mouse IN model | plasma | intraperitoneal | 0.8 mg/kg |  | 213 ng/mL |
